Measurements from different studies.
Parts stem from different laboratories: compare values within a part only. Values joined by “and” are separate records of one study, mostly repeats; a detail may differ.
Sequence of UniProt Q8RYC6 (whole entry, looked up): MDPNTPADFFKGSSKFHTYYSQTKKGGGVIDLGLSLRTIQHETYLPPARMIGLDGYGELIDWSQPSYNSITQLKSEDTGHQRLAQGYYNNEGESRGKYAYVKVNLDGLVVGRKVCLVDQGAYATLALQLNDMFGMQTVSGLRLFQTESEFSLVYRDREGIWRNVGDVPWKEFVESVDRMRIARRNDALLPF
Sequence of UniProt Q9M1R4 (whole entry, looked up): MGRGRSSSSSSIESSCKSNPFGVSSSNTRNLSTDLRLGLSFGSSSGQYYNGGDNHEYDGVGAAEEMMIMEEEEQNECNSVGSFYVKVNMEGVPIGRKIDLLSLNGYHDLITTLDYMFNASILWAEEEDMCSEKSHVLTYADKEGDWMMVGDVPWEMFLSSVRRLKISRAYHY
Sequence of UniProt Q94JM3 (whole entry, looked up): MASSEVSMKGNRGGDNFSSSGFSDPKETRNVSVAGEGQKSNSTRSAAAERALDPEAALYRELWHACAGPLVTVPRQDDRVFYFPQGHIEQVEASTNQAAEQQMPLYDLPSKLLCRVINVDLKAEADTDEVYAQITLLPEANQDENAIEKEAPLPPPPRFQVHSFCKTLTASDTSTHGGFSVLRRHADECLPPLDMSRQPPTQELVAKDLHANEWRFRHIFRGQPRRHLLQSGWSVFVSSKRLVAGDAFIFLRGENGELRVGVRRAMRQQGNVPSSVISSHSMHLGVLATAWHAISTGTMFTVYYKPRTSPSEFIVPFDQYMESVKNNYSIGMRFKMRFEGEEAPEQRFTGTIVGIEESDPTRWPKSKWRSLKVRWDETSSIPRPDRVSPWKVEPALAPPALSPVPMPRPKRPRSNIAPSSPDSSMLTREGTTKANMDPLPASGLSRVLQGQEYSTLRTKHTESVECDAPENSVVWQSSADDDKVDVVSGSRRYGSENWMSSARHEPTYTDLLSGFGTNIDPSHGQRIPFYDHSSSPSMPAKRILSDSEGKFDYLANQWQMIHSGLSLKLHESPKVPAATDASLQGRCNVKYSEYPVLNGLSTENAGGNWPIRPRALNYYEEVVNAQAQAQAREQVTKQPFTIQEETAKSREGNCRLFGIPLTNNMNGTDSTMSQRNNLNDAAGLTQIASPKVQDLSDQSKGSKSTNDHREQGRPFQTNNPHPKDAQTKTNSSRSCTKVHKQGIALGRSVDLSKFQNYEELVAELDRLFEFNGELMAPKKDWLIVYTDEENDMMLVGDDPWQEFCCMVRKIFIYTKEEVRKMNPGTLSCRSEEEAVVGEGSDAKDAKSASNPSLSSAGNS
Sequence of UniProt Q84WU6 (whole entry, looked up): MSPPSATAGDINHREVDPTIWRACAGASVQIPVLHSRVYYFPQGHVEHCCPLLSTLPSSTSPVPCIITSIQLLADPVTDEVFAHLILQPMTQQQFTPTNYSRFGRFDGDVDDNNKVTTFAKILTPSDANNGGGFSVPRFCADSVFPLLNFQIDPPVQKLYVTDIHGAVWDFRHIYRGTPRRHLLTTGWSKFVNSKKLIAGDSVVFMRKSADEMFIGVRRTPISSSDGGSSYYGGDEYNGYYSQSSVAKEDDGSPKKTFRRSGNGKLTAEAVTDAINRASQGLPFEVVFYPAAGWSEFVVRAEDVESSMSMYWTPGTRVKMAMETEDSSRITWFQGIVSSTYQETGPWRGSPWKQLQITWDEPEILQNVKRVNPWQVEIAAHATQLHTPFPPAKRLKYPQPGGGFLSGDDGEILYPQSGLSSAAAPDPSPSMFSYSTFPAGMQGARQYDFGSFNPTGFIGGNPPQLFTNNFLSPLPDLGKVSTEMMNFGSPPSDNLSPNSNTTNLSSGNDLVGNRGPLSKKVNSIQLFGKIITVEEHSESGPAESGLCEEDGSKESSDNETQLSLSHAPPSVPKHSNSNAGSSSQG
Sequence of UniProt P93022 (whole entry, looked up): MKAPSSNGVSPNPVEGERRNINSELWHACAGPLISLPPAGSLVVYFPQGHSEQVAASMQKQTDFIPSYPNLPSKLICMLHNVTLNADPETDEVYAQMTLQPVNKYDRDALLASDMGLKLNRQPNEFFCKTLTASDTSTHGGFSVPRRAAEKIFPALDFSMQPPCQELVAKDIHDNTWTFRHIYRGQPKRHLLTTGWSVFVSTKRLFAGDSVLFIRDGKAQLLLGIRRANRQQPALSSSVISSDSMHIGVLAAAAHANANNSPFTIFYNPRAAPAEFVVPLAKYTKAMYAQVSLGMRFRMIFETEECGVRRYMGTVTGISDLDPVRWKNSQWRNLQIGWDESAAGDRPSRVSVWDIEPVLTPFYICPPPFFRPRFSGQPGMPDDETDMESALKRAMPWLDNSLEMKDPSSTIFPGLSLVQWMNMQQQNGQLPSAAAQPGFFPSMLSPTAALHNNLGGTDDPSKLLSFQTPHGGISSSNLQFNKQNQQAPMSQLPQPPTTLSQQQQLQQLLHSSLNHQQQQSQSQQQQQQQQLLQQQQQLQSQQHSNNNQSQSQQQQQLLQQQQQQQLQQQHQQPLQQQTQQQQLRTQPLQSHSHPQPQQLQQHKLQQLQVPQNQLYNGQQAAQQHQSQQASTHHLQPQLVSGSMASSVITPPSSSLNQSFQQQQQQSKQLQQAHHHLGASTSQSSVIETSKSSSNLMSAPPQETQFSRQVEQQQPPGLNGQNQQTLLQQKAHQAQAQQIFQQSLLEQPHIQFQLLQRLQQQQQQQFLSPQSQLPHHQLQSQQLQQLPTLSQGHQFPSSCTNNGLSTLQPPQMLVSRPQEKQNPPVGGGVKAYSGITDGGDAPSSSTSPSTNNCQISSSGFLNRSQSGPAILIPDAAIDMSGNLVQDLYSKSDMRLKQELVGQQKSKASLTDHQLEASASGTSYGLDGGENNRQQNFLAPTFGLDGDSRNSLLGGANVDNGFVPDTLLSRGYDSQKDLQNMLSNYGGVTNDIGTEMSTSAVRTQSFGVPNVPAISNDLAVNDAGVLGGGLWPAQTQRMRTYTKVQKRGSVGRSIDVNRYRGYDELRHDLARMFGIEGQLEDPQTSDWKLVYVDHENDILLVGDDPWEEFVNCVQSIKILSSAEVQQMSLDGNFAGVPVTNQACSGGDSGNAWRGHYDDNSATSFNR
Sequence of UniProt Q9C5X0 (whole entry, looked up): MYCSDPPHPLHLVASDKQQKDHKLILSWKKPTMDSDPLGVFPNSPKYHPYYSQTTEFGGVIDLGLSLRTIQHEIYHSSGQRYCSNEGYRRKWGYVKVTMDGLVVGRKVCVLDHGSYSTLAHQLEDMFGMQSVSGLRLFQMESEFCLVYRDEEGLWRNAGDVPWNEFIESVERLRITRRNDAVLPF

Study 1
Molecule: B1 (IAA18)
Technique: two-hybrid
Reading: higher = firmer interaction
B1: IAA18 (Arabidopsis thaliana, UniProt O24408); chain MEGYSRNGEISPKLLDLMIPQERRNWFHDEKNSVFKTEEKKLELKLGPPGEEDDDESMIRHMKKEPKDKSILSLAGKYFSPSSTKTTSHKRTAPGPVVGWPPVRSFRKNLASGSSSKLGNDSTTSNGVTLKNQKCDAAAKTTEPKRQGGMFVKINMYGVPIGRKVDLSAHNSYEQLSFTVDKLFRGLLAAQRDFPSSIEDEKPITGLLDGNGEYTLTYEDNEGDKMLVGDVPWQMFVSSVKRLRVIKTSEISSALTYGNGKQEKMRR
For IAA32 (Arabidopsis thaliana, UniProt Q8RYC6); relative to: out of 4 tests: positive tests read 0.
ARF17 (Arabidopsis thaliana, UniProt Q84WU6); weak activation fusion; relative to: out of 3 tests — positive tests: 0.
It gave 3 for positive tests (ARF7 1030-1164 (Arabidopsis thaliana, UniProt P93022); relative to: out of 4 tests).
ARF2 727-859 (Arabidopsis thaliana, UniProt Q94JM3); relative to: out of 4 tests — positive tests: 1.
The positive tests was 4 (IAA34 (Arabidopsis thaliana, UniProt Q9C5X0); relative to: out of 4 tests).
The positive tests was 1 (IAA30 (Arabidopsis thaliana, UniProt Q9M1R4); weak activation fusion; relative to: out of 4 tests).

Study 2
Target: Sal-like protein 4, full length isoform B (SALL4, Homo sapiens, UniProt Q9UJQ4-2, residues 1-616)
Technique: universal PBM
Molecule type: double-stranded DNA, one strand shown
Matrix: in vitro
Tested at: not given
Notes: 8-mer, flanks averaged, mean of replicates
Reading: higher = stronger binding
Target sequence (chain): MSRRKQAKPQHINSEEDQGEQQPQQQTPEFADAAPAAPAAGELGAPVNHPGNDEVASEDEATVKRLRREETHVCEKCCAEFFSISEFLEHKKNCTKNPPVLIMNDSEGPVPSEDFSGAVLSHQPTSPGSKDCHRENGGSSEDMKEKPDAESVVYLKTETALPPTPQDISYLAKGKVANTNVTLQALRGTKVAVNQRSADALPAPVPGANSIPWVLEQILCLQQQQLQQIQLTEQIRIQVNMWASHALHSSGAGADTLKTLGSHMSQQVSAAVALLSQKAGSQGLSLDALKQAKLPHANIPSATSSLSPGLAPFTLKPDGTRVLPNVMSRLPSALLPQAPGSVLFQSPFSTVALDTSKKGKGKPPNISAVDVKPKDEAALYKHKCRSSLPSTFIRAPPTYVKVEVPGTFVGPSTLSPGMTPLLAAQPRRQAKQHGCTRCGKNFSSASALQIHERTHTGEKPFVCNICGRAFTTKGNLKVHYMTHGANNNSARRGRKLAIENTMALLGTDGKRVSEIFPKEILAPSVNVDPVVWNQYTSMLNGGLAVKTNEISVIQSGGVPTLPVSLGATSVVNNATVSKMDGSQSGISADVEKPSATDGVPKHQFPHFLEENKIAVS
`AGGAGAGC` has an E-score of -0.299.
`CGTATTGA` gave an E-score of 0.192.
`GGTTGTAC` gave an E-score of -0.137.
`AATCACGA` gave an E-score of 0.108.
For `AGTGTTTC`, the E-score was -0.0269.
The E-score of `ATGGAAAA` is reported as 0.257.
For `CCGGCTTC`, the E-score was -0.391.
For `AAATAGCG`, the E-score was 0.19.

Other studies, line by line
With `Clc1ccc(-c2csc3ncnc(N4CCCCC4c4ncc[nH]4)c23)cc1` (centres unmarked) the remaining compound was 2.07% (human, microsomes or S9; 2 µM, 0.5 h).
`COc1ccc(Oc2cc(NCCC(F)(F)F)c3ncc(-c4ccc(C(=O)NC5CC5)c(C)c4)n3n2)c(F)c1F` gave a cell count of 0.65 and 0.792 (NCI-H1048; Vi-Cell; 3 nM, 3 d; relative to: DMSO).
`CCc1nc(C)sc1CNC(=O)Nc1ccc2c(cnn2C)c1` has a remaining compound of 79.7% (human, microsomes or S9; 2 µM, 0.5 h).

Excerpt of the above (study 2):
`GGTTGTAC` gave an E-score of -0.137.
